Experimental data gathered from unrelated publications.
Every numbered part comes from another study and shows a few of its results, in no order. Positions count from the first letter of the parent shown.

Set 1
Target: RNA binding protein fox-1 homolog 2, RRM domain, GST-SBP tag (RBFOX2, Homo sapiens, UniProt O43251-10, residues 100-194)
Method: RNA Bind-n-Seq
Form: RNA
Matrix: in vitro
Concentration: 365 nM
Setting: natural RNA segment, single round, ends assumed
Reference: no-protein control
Direction: higher = stronger binding
Constant ends, left off below: GGGAGUUCUACAGUCCGACGAUC … UGGAAUUCUCGGGUGCCAA
Residues (chain): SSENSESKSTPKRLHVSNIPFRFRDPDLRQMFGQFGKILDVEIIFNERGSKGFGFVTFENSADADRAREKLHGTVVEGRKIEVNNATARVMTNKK
Sequence | RBNS enrichment (R)
UGCUGCGUGCCCACCAGGAUUUCCUGUGAGGGCCCAGGAAUGAGCAAGGCAUGGUCUGCCACCAGCUGACGGAAAGCAGCCUUCUGUACAACAGAUGGGAGGGUGAAGGG | 0.407
GGUAGAUUUUAAGAAUGGUCUCAGUGUUAAUACUGAGAAAAAGUCCUGUCAGUUCAGAAAAAAUGUGAAGUCUACUUUAGUAUUCCUGUAAUACUAAACCGUUGAGUUUC | 1.81
CCACAGACAUGUUAUUCUUCUGAAAGAGCCACAUUUUGGUUUUAUUUCUUGUCACAUGAUUUCUUUUCUUGAUGGAUGAAAAAUAUGAAAGGAAACUUUUAUAUCUGUUG | 0.497
CUUAGGCAAGUUCUUGGAGUCUGCUCCCAGAUGGCAUCGGCUCUGAGAUACCGGUUACUUCCCUGGUCCUGAGAGUCACCUGUGGUCACCCCUCUUCCCAGGCCUGACUU | 0.299
CCAGAAUGUAUUAUAAUAUAUUGCUAUUAGGUUACUCUACUAACUGGAGCCAUGCCGACCUCUACAAACCUUGAACAGGUGCACAGCCCCCUCUCCGGAGCGCUUUGUAA | 0.658
CCUUUGAGUCAGUGUGCAGACCCCCUUUCAGGCCAUGCCUCUGUGAACCCUGUAUUGCUGGGGCCGGAAGGAGCCCCUGAGCCUAGCCCCUUCCCGUCUGCCCUGUGUCC | 0.643
UUCUUUAUAGUUAAGUCUCUGUUUUCCAUGUUCUGUCAUUUAUAUAGGUCAAGGACAAGUGCCUUCUAAGGCAUGGAUAAGGGCUUUCUUCUUAUGAAAGUCUAGACUGU | 0.307
CCUUCUCUGGAACCACUCCAGCCCAGCUCCACCUCAGCCUUGGCCUUCACGCUGUGGAAGCAGCCAAGGCACUUCCUCACCCCCUCAGCGCCACGGACCUCUCUGGGGAG | 0.424

Set 2
Target: CCNA2, cyclin fold, Cln2 fusion (human)
Method: yeast growth competition, sequencing
Matrix: yeast
Setting: strong parent motif
Reference: not given
Direction: higher = stronger binding
Starting sequence: INSM1 docking peptide (human); PKAIRKLHFEDEV; partner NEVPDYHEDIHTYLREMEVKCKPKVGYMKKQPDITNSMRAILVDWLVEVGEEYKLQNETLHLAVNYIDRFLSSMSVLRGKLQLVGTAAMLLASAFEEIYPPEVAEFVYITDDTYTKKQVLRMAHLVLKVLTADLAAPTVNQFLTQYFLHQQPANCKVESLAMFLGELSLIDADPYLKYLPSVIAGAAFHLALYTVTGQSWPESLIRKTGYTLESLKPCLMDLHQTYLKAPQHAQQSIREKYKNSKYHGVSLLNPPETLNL
Substitution | normalised enrichment score
PKAIRTLHFEDEV [K6T] | 3.21
PKAIRKLHFEDFV [E12F] | 5.07
PKAHRKLHFEDEV [I4H] | 5.95
PEAIRKLHFEDEV [K2E] | 2.44
PKAIRKLHMEDEV [F9M] | 1.2
PKAIRKLHFEDKV [E12K] | 4.94
PKAIRKLPFEDEV [H8P] | 2.79
PKAIRLLHFEDEV [K6L] | 1.23
PKAIRKLHLEDEV [F9L] | 1.21
PFAIRKLHFEDEV [K2F] | 4.03
PKAIRKLHWEDEV [F9W] | 1.89
PKAIRKLHFQDEV [E10Q] | 4.88
PKAIRKAHFEDEV [L7A] | 0.0108
PKAIRKLHFRDEV [E10R] | 4.33
PKAIRKLHFETEV [D11T] | 4.6
PKAIAKLHFEDEV [R5A] | 1.06
PKAIRDLHFEDEV [K6D] | 0.181
PKAIRKCHFEDEV [L7C] | 0.349
PKAIPKLHFEDEV [R5P] | -0.419
PKAIIKLHFEDEV [R5I] | 0.835
PKAIRKNHFEDEV [L7N] | 0.131
PKAIRRLHFEDEV [K6R] | 5.67
PKAIFKLHFEDEV [R5F] | 0.252
PKAYRKLHFEDEV [I4Y] | 5.49
PKAIRKLHFEGEV [D11G] | 4.89

Set 3
Target: Histone acetyltransferase KAT6A, winged helix 1, GST fusion (KAT6A, Homo sapiens, UniProt Q92794, residues 1-85)
Method: protein binding microarray
Form: double-stranded DNA, one strand shown
Matrix: in vitro
Concentration: not given
Setting: 8-mer, flanks averaged, mean of 2 arrays, mostly near background
Reference: not given
Direction: higher = stronger binding
Target sequence (chain): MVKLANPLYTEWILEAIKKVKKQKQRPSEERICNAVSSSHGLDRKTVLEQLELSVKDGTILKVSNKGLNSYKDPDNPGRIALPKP
Sequence | E-score
CGTCTACC | 0.0687
AAGTACAG | -0.147
ATTGGGGG | -0.246
CCAGATGC | -0.225
AAGGCAGC | -0.0514
AGTCTTTA | -0.215
CCCCAGTC | -0.219
CTGCAACA | 0.0158
GATCACGC | 0.111
GCGATCAA | 0.0015
AAGGGTTG | -0.106
AACGGATT | 0.129
GGATCAAA | -0.175
CAACCTTA | -0.0918
AACGCGAC | 0.189
TAGCATGA | -0.273
AGAAGCGC | 0.299
ACGTGTAC | -0.113
ACCTGCAA | -0.133
GCCAAGAA | -0.0803
AGCCAAAA | -0.207
CAGCGACG | 0.294
ACGTCGCT | 0.151
ATAAAAGA | 0.0439

Set 4
Target: Prothrombin, mature alpha-thrombin (F2, Homo sapiens, UniProt P00734)
Method: aptamer microarray, sandwich
Form: DNA with 2'F-ANA
Matrix: in vitro
Concentration: 200 nM
Setting: whole 15-mer aptamer, many near background
With: Cy3 exosite-II aptamer, 400 nM
Direction: higher = stronger binding
Sequence: GGTTGGTGTGGTTGG
Modification | mean fluorescence intensity [a.u.]
2'F-ANA at 1 2 3 4 7 8 10 11 13 15 | 59.5
2'F-ANA at 9 11 14 | 166
2'F-ANA at 2 3 4 8 13 15 | 494
2'F-ANA at 1 2 4 6 7 8 13 | 87.4
2'F-ANA at 4 6 7 8 9 11 13 14 15 | 73.8
2'F-ANA at 2 3 4 7 9 10 12 | 354
2'F-ANA at 1 3 4 5 7 9 10 12 15 | 54
2'F-ANA at 3 5 7 8 10 11 12 | 69.5
2'F-ANA at 4 8 9 10 11 13 | 63.9
2'F-ANA at 1 2 3 6 7 11 12 13 14 | 86.3
2'F-ANA at 1 3 5 8 9 13 14 | 42.2
2'F-ANA at 3 4 5 8 9 11 12 | 201
2'F-ANA at 1 2 3 9 10 11 12 13 15 | 83.5
2'F-ANA at 2 5 7 8 9 10 12 13 15 | 53.4
2'F-ANA at 3 4 5 9 11 13 14 | 51.7
2'F-ANA at 1 3 4 5 6 7 8 10 12 14 15 | 66.7
2'F-ANA at 1 2 4 5 6 9 10 11 13 14 15 | 46.8
2'F-ANA at 1 3 4 5 7 8 10 13 14 | 44.9
2'F-ANA at 3 5 6 9 11 13 14 | 53.9

For quick reference, copied from above (set 3):
Sequence | E-score
AACGCGAC | 0.189
AGTCTTTA | -0.215
CGTCTACC | 0.0687
TAGCATGA | -0.273
GCGATCAA | 0.0015
AAGGGTTG | -0.106
AACGGATT | 0.129
CAACCTTA | -0.0918
